Results gathered from unrelated publications.
Each line is one published result; not all experiments were run side by side. ± marks the error that the study gave.

| SMILES | tested on | assay | test system | conditions | scale | endpoint | result |
| --- | --- | --- | --- | --- | --- | --- | --- |
| CCN1/C(=C/C(C)=O)Sc2ccc(F)cc21 | – | – | cynomolgus monkey | oral, 100 mg/kg, 0.5 h post-dose | – | systolic blood pressure | 114 ± 5 mmHg |
| CC(C)C[C@H](NC(=O)CNC(=O)c1cc(Cl)ccc1Cl)B(O)O | – | – | newly diagnosed multiple myeloma patients | oral, dose not given, Headache, maintenance | – | adverse events grade 3 | 0% |
| C[C@@H](Nc1cc(F)cc(F)c1)c1cc(C(=O)N(C)C)cc2c(=O)cc(N3CCOCC3)oc12 | – | item: Neutropenia | advanced solid tumour patients | oral, dose not given, dose finding | – | related serious adverse events | 1.6% |
| Cc1ccnc([18F])c1-c1cccc(N2C[C@H](N3CCN(C(=O)c4nccs4)CC3)CC2=O)c1 | – | – | human, brain pons | intravenous | – | ktrans | 0.0073 min⁻¹ |
| Cc1c(-c2ccc(N3CCc4cccc(C(=O)Nc5nc6ccccc6s5)c4C3)nc2C(=O)O)cnn1CC12CC3(C)CC(C)(C1)CC(OCCNCC[C@H](O)CO)(C3)C2 | – | – | beagle dog, male, anaesthetised | intravenous infusion, 0.01 mg/kg/min, 30 min | reference: baseline | mean arterial pressure change | 1 mmHg |
| CC(C)(C(=O)N1CCOc2c(C#N)cncc2C1)C(F)F | – | – | human, both sexes | oral, 20 mg single dose | – | subjects with thrombophlebitis TEAE | 0% |
| O=C(O)CCC(=O)O.[2H]C([2H])([2H])Oc1cc(C)c2[nH]ccc2c1CN1CC[C@@H](C2CC2)C[C@H]1c1ccc(C(=O)O)cc1 | – | multiple ascending dose | healthy Chinese subjects | 50 mg twice daily | – | subjects with TEAE Anemia | 0% |
| CC(C)(C)c1ccc(O)c(CN(Cc2cc(C(C)(C)C)ccc2O)C2CCC(NC(N)=O)CC2)c1 (centres unmarked) | – | – | C57BL/6 mice, male, plasma | intraperitoneal, 5 mg/kg, single dose | – | terminal elimination rate constant | 7.78e-05 s⁻¹ |
| O=C(COc1ccc(Cl)cc1)NC12CC(c3nnc([C@H]4C[C@@H](OC(F)(F)F)C4)o3)(C1)C2 | – | – | healthy human both sexes, plasma | oral, 100 mg once daily, day 1, mean | – | Cmax | 1310 nM |
| CCOc1c([C@H](C)n2nc(C)c3c(N)ncnc32)cc(Cl)c(F)c1[C@@H]1CNC(=O)C1 | – | ECG | previously treated B-cell malignancy patients | oral, 15 mg once daily, baseline QTcF ≤450 ms | – | observations QTcF >480 ≤500 ms | 0% |
| O=C(CCCCCCC(=O)Nc1ccc(CC[18F])cc1)NO | – | – | athymic nu/nu male mice, LNCaP xenograft, muscle | intravenous, 2 h | – | tissue uptake | 1.2 ± 0.6 %ID/g |
| Cc1cc(C)c(CNC(=O)c2cc(Cl)c3c(c2C)O[C@@](C)([C@H]2CC[C@H](N(C)C)CC2)O3)c(=O)[nH]1 | – | – | relapsed/refractory NHL patients | oral, 200 mg once daily, onset after cycle 1 day 1 | – | adverse event Anemia | 45.8% |
| O=C(O)CCc1ccccc1O | – | – | human CSF | concentration not given, mean | – | CSF concentration | not detected |
| CCCCC(CC)CN1CN(CC(CC)CCCC)CC(C)(N)C1 (centres unmarked) | human iPSC-derived cardiomyocytes | MyBP-C/MYH ratio, plate-normalised SD score | – | concentration not given, primary screen | direction not given | activity score | 8.6 |
| Cn1cc(-c2ccc(-c3cncc(Cl)c3N3CCC4(CCNC4=O)CC3)cc2)cn1 | COLO 205 | gene expression, microarray, item: RSAD2 mRNA | – | concentration not given, 6 h | reference: untreated cells | log2 fold change | -1.02 |
| CN(C(=O)n1cnc(-c2cccnc2)c1)[C@H]1CC[C@H](O)CC1 | – | – | Wistar rat, pons | oral, 10 mg/kg/day of BIA 10-2474, 72 h, repeated 5 days | – | concentration | 13.5 ± 1.3 ng/g |
| CC[C@H](c1ccc(O)cc1)[C@@H](CC)c1ccc(O)cc1 | human iPSC-derived cardiomyocytes | MyBP-C/MYH ratio, plate-normalised SD score | – | concentration not given, primary screen | direction not given | activity score | 3.8 |
| CCO[C@H]1CCN(Cc2c(OC)cc(C)c3[nH]ccc23)[C@H](c2ccc(C(=O)O)cc2)C1 | – | – | PNH patients, active haemolysis | oral, 50 mg, 4 weeks, treatment | – | incidence of back pain | 0% |
| Cc1cc(-c2nnc(N)nc2-c2ccc(F)cc2)cc(Cl)n1 | – | – | human, post-IO other solid tumours | oral, 100 mg, phase Ia/Ib, any grade | – | patients with treatment-related diarrhoea | 4.8% |

| SMILES | tested on | assay | test system | conditions | scale | endpoint | result |
| --- | --- | --- | --- | --- | --- | --- | --- |
| C=CCN1CC(=O)N2[C@@H](Cc3ccc(O)cc3F)C(=O)N(Cc3cccc(N4CC(N5CCN(CC)CC5)C4)n3)C[C@@H]2N1C(=O)NCc1ccccc1 | – | item: Nausea | advanced solid tumour patients | oral, 120 mg twice daily, expansion part, any grade | – | treatment-related adverse events | 80% |
| CC(=O)N(C)[C@H]1CCN(C(=O)c2cnc3c(c2)C[C@](C)(c2ccc(F)cc2)N3)C1 | – | item: Headache | human | oral, 30 mg once daily | – | adverse event duration | 1 days |
| CNC(=O)c1ccc(-c2cnc3ncc(Cc4ccc5ncccc5c4)n3n2)cc1F | – | – | Japanese patients | oral, 400 mg, any grade | – | Lymphopenia dose reduction/interruption | 1% |
| COc1cc(C=O)ccc1O | – | – | human CSF | concentration not given, mean | – | CSF concentration | not detected |
| CN(C(=O)n1cnc(-c2ccc[n+]([O-])c2)c1)[C@H]1CC[C@H](O)CC1 | – | – | Wistar rat, medulla oblongata | oral, 10 mg/kg/day of BIA 10-2474, 24 h, repeated 5 days | – | concentration | 8.8 ± 6.8 ng/g |
| Oc1ccc([C@H]2COc3cc(O)ccc3C2)cc1 | – | – | human CSF | concentration not given, mean | – | CSF concentration | not detected |
| N[C@@H](Cc1ccc(O)c(O)c1)C(=O)O | – | actiwatch activity | MPTP-lesioned marmoset, dyskinetic | 20 mg/kg | – | time to dyskinesia onset | ≤ 30 min |
| CNc1ccc(-c2nc3ccc(O)cc3s2)cc1 [carbon-11 labelled] | – | microPET/CT imaging | APP/PS1 mouse, AD model, brain | intravenous, 5 min | – | SUV | 0.866 ± 0.386 |
| COc1ccc([C@@H](O)c2cc(-c3ncnc4cc(N5CCOCC5)ccc34)c(F)cc2Cl)nn1 | – | – | locally advanced rectal cancer | all dose levels overall, added: capecitabine and radiotherapy | – | drug-related blood and lymphatic disorders | 37% |
| CC(=O)N(C)C1CCN(c2cc(F)cc(NC(=O)c3cc4c(F)ccc(C)c4[nH]3)c2)C1 (centres unmarked) | – | – | CD1 mouse, plasma | intravenous, 1 mg/kg, 7 h | – | plasma concentration | 0.716 ng/mL |
| CC/C(=C(\c1ccccc1)c1ccc(OCCN(C)C)cc1)c1ccccc1 | – | – | male Hartley guinea pigs, anaesthetized | intravenous, 3 mg/kg over 10 min, after infusion | – | heart rate | 222 ± 0.6 beats/min |
| [18F]c1ccc(-c2ccc3c(c2)[nH]c2ccncc23)cn1 | – | ex vivo biodistribution | APP/PS1 Alzheimer mice, brain stem | intravenous, 30 min | – | uptake | 0.365 ± 0.021 SUV |
| C=CC(=O)N(C)CCOc1c(N)ncnc1-c1cc(F)cc(NC(=O)c2ccc(C3CC3)cc2F)c1C | – | – | human, plasma | oral, 30 mg single dose | – | AUC | 75.1 ng·h/mL |
| O=C1Cc2cc(CCN3CCN(c4nsc5ccccc45)CC3)c(Cl)cc2N1 | – | – | male Hartley guinea pigs, anaesthetized | intravenous, 0.1 mg/kg group, baseline before infusion | – | heart rate | 214 ± 0.5 beats/min |
| CO[C@@H]1[C@H](OC(=O)N2CC(CCN3CCOCC3)C2)CC[C@]2(CO2)[C@H]1[C@@]1(C)O[C@@H]1CC=C(C)C | – | – | humans | subcutaneous, 1.8 mg twice weekly for 4 weeks, day 28 | reference: baseline | activated partial thromboplastin time | -1.7 ± 0.8 s |
| NCCCCNCc1ccc(CNC(=O)c2csc3nc[nH]c(=O)c23)cc1 | – | haemolysis | human red blood cells | 1 h, 37 °C | – | EC50 | > 100 µM |
| COc1ccc2[nH]c([S@+]([O-])Cc3ncc(C)c(OC)c3C)nc2c1 | – | – | human male, dried plasma spots | oral, 5 mg racemic omeprazole | – | AUC(0-8 h) | 0.179 µM·h |
| CC(C)NCC(O)c1ccc(NS(C)(=O)=O)cc1 (racemic) | – | – | male Hartley guinea pigs, anaesthetized | intravenous, 1 mg/kg group, baseline before infusion | – | heart rate | 246 ± 0.6 beats/min |
| C[C@@H](Oc1ccc(S(C)(=O)=O)cc1C(=O)N1C[C@@H]2C[C@]2(c2cc(C(F)(F)F)on2)C1)C(F)(F)F | – | – | young humans, plasma | oral, 25 mg once daily, multiple dose, geometric mean | – | half-life at steady state | 47.9 h |
